# Measured values collected from several papers.
# Numbered parts are unrelated; each lists some results of a single study.

# Series 1
# Target: Histone acetyltransferase KAT6A, winged helix 1, GST fusion (KAT6A, Homo sapiens, UniProt Q92794, residues 1-85)
# Technique: protein binding microarray
# Molecule type: double-stranded DNA, one strand shown
# Matrix: in vitro
# Tested at: not given
# Notes: 8-mer, flanks averaged, mean of 2 arrays, mostly near background
# Baseline: not given
# Reading: higher = stronger binding
# Residues (chain): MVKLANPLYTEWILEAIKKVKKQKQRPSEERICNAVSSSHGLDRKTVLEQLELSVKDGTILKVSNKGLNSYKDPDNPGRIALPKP
Sequence,E-score
ATTGTACG,0.00795
AATCAGTG,-0.233
ATGGTTAC,0.0485
CGAATCAA,-0.149
CTAGTCCA,-0.15
CTGGTAGA,-0.306
CGAGGCGA,-0.118

# Series 2
# Target: Interferon regulatory factor 3, full length, phosphomimetic (IRF3, Homo sapiens, UniProt Q14653, residues 1-427, S386D/S396D/S398D/S402D/T404D/S405D)
# Technique: protein-binding microarray
# Molecule type: double-stranded DNA, one strand shown
# Matrix: in vitro
# Tested at: 2540 nM top
# Notes: 60-bp whole probe
# Together with: salmon DNA 0.4 mg/ml
# Baseline: random background probes
# Reading: higher = stronger binding
# Constant ends, left off below: GCCTAGCAC … GTGCTAGGTCTTGATTCGCTTGACGCTGCTG
# Target sequence (chain): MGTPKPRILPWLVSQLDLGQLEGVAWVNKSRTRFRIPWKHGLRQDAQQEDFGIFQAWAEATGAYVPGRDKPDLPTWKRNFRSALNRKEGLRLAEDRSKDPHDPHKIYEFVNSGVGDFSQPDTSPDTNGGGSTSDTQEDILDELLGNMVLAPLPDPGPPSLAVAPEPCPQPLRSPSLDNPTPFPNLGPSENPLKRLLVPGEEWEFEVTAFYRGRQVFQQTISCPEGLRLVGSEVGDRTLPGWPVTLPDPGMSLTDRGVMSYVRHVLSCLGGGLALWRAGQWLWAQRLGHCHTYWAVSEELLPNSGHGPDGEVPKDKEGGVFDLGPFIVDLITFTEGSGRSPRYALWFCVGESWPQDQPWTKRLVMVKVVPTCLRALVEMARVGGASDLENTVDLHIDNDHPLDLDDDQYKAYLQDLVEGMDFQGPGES
Sequence,fitted relative affinity
GACGGACTGCTTTTACTGAC,-0.296 z-score
GACGATCTCAGTTTAGAGAC,0.925 z-score
GACGATTTCAGTATAGAGAC,1.8 z-score
TTTTCTCTCCCATTCTGAAT,3.46 z-score
GACGGACTGGGTCTCGGGAT,-0.872 z-score

# Series 3
# Target: Prothrombin, mature alpha-thrombin (F2, Homo sapiens, UniProt P00734)
# Technique: aptamer microarray, sandwich
# Molecule type: DNA with 2'F-ANA
# Matrix: in vitro
# Tested at: 200 nM
# Notes: whole 15-mer aptamer, many near background
# Together with: Cy3 exosite-II aptamer, 400 nM
# Reading: higher = stronger binding
# Sequence: GGTTGGTGTGGTTGG
Modification,mean fluorescence intensity
2'F-ANA at 1 2 7 10 13 14,42.7 a.u.
2'F-ANA at 2 8 10 12 13,149 a.u.
2'F-ANA at 1 2 4 9 12,292 a.u.
2'F-ANA at 8 9 12 15,835 a.u.
2'F-ANA at 2 4 7 11 14 15,109 a.u.
2'F-ANA at 1 2 4 6 8 12 15,312 a.u.

# Further values, each from its own experiment
Molecule,target,assay,test system,conditions,how to read,measurement,value
"PhoQ, residues 284 288 289 292 302 303 AMDMFI","PhoP, residues 12 14 15 18 19 TPWLV (Escherichia coli, UniProt P23836)","Sort-seq, refers to: YFP reporter",E. coli,"PhoQ-PhoP variant library, together with: 10 µM Mg2+","baseline: high Mg2+ state, higher = stronger signaling",fold induction,0.927

# Some of these lines once more (series 2):
Sequence,fitted relative affinity
GACGATTTCAGTATAGAGAC,1.8 z-score
TTTTCTCTCCCATTCTGAAT,3.46 z-score
